Measured values collected from several papers.
UniProt P29317, sequence (whole entry, looked up): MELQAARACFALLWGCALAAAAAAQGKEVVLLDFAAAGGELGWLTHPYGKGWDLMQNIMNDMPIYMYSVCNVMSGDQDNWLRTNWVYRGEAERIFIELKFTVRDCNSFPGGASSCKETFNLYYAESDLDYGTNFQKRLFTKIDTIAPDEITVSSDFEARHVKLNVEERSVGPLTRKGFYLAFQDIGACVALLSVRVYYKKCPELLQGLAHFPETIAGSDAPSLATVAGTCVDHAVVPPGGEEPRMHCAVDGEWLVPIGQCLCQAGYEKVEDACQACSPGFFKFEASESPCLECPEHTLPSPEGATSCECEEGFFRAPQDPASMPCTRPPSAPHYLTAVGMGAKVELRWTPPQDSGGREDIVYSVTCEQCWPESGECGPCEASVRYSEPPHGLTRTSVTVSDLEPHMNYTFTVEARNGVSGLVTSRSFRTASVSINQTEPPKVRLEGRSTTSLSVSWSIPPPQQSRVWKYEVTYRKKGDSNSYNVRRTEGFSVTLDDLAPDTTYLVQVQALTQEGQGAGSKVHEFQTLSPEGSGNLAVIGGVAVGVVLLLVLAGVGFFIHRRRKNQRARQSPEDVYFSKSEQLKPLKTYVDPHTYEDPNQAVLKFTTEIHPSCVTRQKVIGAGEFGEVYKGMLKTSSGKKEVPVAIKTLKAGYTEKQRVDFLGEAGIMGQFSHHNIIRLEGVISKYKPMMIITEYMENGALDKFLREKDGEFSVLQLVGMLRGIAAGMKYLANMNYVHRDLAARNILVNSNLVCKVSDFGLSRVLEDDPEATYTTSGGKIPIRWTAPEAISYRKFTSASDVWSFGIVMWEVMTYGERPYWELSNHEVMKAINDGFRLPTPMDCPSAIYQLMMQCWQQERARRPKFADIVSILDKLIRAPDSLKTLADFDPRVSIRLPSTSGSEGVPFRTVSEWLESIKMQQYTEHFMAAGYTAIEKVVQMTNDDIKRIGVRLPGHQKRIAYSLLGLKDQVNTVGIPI
UniProt P52564, sequence (whole entry, looked up): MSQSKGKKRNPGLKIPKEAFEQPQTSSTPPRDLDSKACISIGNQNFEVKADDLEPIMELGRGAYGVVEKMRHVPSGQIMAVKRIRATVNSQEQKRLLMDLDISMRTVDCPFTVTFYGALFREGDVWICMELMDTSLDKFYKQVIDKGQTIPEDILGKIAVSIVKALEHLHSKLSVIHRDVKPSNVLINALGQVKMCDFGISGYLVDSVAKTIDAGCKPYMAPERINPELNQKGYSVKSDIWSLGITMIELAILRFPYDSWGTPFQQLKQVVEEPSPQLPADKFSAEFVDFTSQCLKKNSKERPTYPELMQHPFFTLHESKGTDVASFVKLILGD
UniProt Q00534, sequence (whole entry, looked up): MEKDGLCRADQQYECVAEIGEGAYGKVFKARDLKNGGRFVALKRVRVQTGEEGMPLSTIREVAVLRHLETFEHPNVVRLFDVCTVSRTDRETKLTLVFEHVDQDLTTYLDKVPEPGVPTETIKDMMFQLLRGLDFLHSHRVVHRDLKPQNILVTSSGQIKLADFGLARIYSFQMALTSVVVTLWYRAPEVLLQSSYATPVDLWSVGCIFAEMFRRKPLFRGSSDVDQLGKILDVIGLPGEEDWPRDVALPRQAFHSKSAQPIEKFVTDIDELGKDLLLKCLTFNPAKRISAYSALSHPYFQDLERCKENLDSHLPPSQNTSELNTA

With `Cc1noc(NS(=O)(=O)c2ccc(N=NN(C)O)cc2)c1C` the inhibition was 64.1% (ABTS scavenging; 120 µg/mL).
`Cc1ccc(N(C)c2ccc(NC(=O)CN(C)c3ccccc3N3CCCC3=O)nc2)cc1` has an EC50 of 0.101 µM (Plasmodium falciparum; parasite growth; 3D7; 72 h, blood stage).
With `CN1CCN(c2ccc(-c3ccc4nncc(Nc5cnccn5)c4c3)cc2)CC1` the EC50 was over 10 µM (Trypanosoma cruzi; parasite growth; C2C12; intracellular, amastigote).
With `COc1cc(CNC(=O)c2ccccc2C)cc(Br)c1OC` the EC50 was 8.68 µM (Porcine epidemic diarrhea virus; viral replication, inhibitor, qPCR; Vero C1008).
The cell death of `CC(=NNC(=O)c1ccncc1)c1ccc(Nc2nnc(-c3ccc(Cl)cc3)c3ccccc23)cc1` is reported as 16.9% (MCF7; cell growth or viability, MTT; 78 nM).
`CCCN(O)N=Nc1ccc(S(=O)(=O)Nc2cc(C)on2)cc1` has an inhibition of 28.7% (ABTS scavenging; 180 µg/mL).
For `O=C(CNc1ccccc1N1CCCC1=O)Nc1ccc(Oc2cccc(Cl)c2)cc1`, the EC50 was over 10 µM (Plasmodium falciparum; parasite growth; 3D7; 72 h, blood stage).
With `COc1cc(-c2cncc3c2CN(C)Cc2cc(N4CCNCC4)ccc2-3)cc(OC)c1OC` the remaining activity was 101% (MAP2K6 (Homo sapiens, UniProt P52564); enzyme activity, inhibitor; 1 µM).
`COc1ccc(C(=O)NCc2cc(O)c(O)c(Br)c2)cc1` gave an EC50 of 3.16 µM (Porcine epidemic diarrhea virus; viral replication, inhibitor, qPCR; Vero C1008).
With `Cc1ccc(N(c2ccc(NC(=O)CN(C)c3ccccc3N3CCCC3=O)cn2)C(C)C)cc1` the EC50 was 0.003 µM (Plasmodium falciparum; parasite growth; 3D7; 72 h, blood stage).
With `CCOC(=O)c1c(NCCC2CC2)c2c([nH]c1=O)CCC2` the EC50 was 20.3 µM (Human immunodeficiency virus 1; viral replication, inhibitor; IIIB; 72 h).
`O=C(CNc1ccccc1N1CCCC1=O)Nc1ccc(Oc2ccc(F)cc2)cc1` has an EC50 of 3.08 µM (Plasmodium falciparum; parasite growth; 3D7; 72 h, blood stage).
With `CCOC(=O)c1c(NC(CC)CO)c2c([nH]c1=O)CCC2` (centres unmarked) the EC50 was over 100 µM (Human immunodeficiency virus 1; viral replication, inhibitor; IIIB; 72 h).
`Cc1cccc2[nH]ccc12` gave an EC50 of 231 µM (Cryptosporidium parvum; parasite growth; HCT-8; 24 h, intracellular).
The viability of `CC(=NNC(=O)c1ccc(N)cc1)c1ccc(Nc2nnc(-c3ccc(Cl)cc3)c3ccccc23)cc1` is reported as 7.84% (MCF7; cell growth or viability, MTT; 10 µM, 24 h).
The EC50 of `O=C1Nc2ccc(Cl)cc2[C@@](C#CC2CC2)(C(F)(F)F)O1` is reported as 0.0039 µM (Human immunodeficiency virus 1; viral replication, inhibitor; IIIB; 72 h).
`Cc1cccc(Oc2ccc(NC(=O)CNc3ccccc3N3CCCC3=O)cc2)c1` gave an EC50 of over 10 µM (Plasmodium falciparum; parasite growth; 3D7; 72 h, blood stage).
`C=CC(=O)N1CCC(COCC(=O)N2CCN(c3nc(-c4cnc(N)nc4C(F)F)nc(N4CCOC[C@@H]4C)n3)CC2)CC1` has a remaining binding of 100% (EPHA2 (Homo sapiens, UniProt P29317); binding, competition with immobilised ligand; 1 µM).
With `N#Cc1cccc2cc[nH]c12` the EC50 was 203 µM (Cryptosporidium parvum; parasite growth; HCT-8; 24 h, intracellular).
The EC50 of `CCOC(=O)c1c(NCCCO)c2c([nH]c1=O)CCC2` is reported as over 100 µM (Human immunodeficiency virus 1; viral replication, inhibitor; IIIB; 72 h).
`N#Cc1ccc2[nH]ccc2c1` gave an EC50 of 108 µM (Cryptosporidium parvum; parasite growth; HCT-8; 24 h, intracellular).
`CNc1ncc2c(/C=C/C(=O)N3CCC(OC)CC3)nn(Cc3cccc(C(F)(F)F)c3)c2n1` gave a remaining activity of 87% (Cyclin-dependent kinase 6, with cyclin D3 (CDK6, Homo sapiens, UniProt Q00534); enzyme activity, inhibitor, radiometric; 1 µM).
With `N#Cc1cccc2[nH]ccc12` the EC50 was 195 µM (Cryptosporidium parvum; parasite growth; HCT-8; 24 h, intracellular).
For `COc1ccc(Nc2cnnc3cc(-c4cnc(N5CCN(C)CC5)nc4)ccc23)cc1Cl`, the EC50 was 6.6 µM (Trypanosoma cruzi; parasite growth; C2C12; intracellular, amastigote).
`COc1cccc2[nH]ccc12` gave an EC50 of 452 µM (Cryptosporidium parvum; parasite growth; HCT-8; 24 h, intracellular).
`CCCCNc1c2c([nH]c(=O)c1C(=O)OCC)CCC2` has an EC50 of 33.2 µM (Human immunodeficiency virus 1; viral replication, inhibitor; IIIB; 72 h).

Some of these lines once more:
For `O=C(CNc1ccccc1N1CCCC1=O)Nc1ccc(Oc2cccc(Cl)c2)cc1`, the EC50 was over 10 µM (Plasmodium falciparum; parasite growth; 3D7; 72 h, blood stage).
With `COc1cc(-c2cncc3c2CN(C)Cc2cc(N4CCNCC4)ccc2-3)cc(OC)c1OC` the remaining activity was 101% (MAP2K6 (Homo sapiens, UniProt P52564); enzyme activity, inhibitor; 1 µM).
`COc1ccc(C(=O)NCc2cc(O)c(O)c(Br)c2)cc1` gave an EC50 of 3.16 µM (Porcine epidemic diarrhea virus; viral replication, inhibitor, qPCR; Vero C1008).
